Measurements from different studies.
Compare with care: the assays were run in different laboratories. Numbers after ± are the reported error.

Cc1ccc(Oc2ccc(NC(=O)CNc3ccccc3-n3cncn3)cc2)cc1
logD (shake-flask): 4.4

COc1ccc([C@@H]2Sc3ccccc3N(CCN(C)C)C(=O)[C@@H]2OC(C)=O)cc1
logD (pH 7.4): 2.09

Cc1nonc1OCCNc1cc(N2CCOCC2)ccc1[N+](=O)[O-]
logD (octanol/buffer; pH 7.4): 2.87

O=S(=O)(c1ccc(F)cc1)N1CCNCC1COc1ccc2ccccc2c1 (stereo not shown)
logD (experimental partition; pH 7.4): 3.53 ± 0.07

O=C(NO)[C@H]1COC(c2ccc(OC(F)(F)F)c(Cl)c2)=N1
logD (octanol/buffer; pH 7.4): 2.57

C[C@@H](NC(=O)c1ccccc1CCC(=O)NNC(=O)/C=C/C(=O)OC(C)(C)C)c1cccc2ccccc12
logD: 3.9

Brc1cccc([C@H]2COC[C@H](C3CCCCC3)N2)c1
logD (shake-flask, 1-octanol/buffer; pH 7.4): > 4.7

O=C(COc1ccccc1[N+](=O)[O-])Nc1ccccc1N1CCOCC1
logD (octanol/buffer; pH 7.4): 3.08

CCOC(=O)N1C[C@@H](c2ccc(Cl)cc2)N[C@@H](c2ccc(C(=O)OC)cc2)C1
logD (shake-flask, 1-octanol/buffer; pH 7.4): > 4.7

COc1cc2[nH]c(C)c(-c3ccc4c(c3)OCCO4)c(=O)c2cc1Cl
logD (chromatographic; pH 7.4): 2.4

C=CCn1c(=O)c2cnc(Nc3ccc(N4CCN(C)CC4)cc3)nc2n1-c1ccc2c(n1)[C@@](O)(CC)CC2
logD (pH 7.4): 2.4

O=c1[nH]c(=S)n(C[C@H]2CCCO2)c2nc[nH]c12
logD: 0.4

CCCc1nc2c(C)cc(-c3nc4ccccc4n3C)cc2n1Cc1ccc(-c2ccccc2C(=O)O)cc1
logD (miniaturised shake-flask; 1-octanol/water): 2.7

CS(=O)(=O)c1ccc(C(=O)N2CCCCC2)cc1
logD (shake-flask; 1-octanol/water): 0.51

O=C(CSc1nnc(-c2ccc([N+](=O)[O-])cc2)n1-c1ccccc1)N1CCOCC1
logD (octanol/buffer; pH 7.4): 1.87

O=C(O)c1cc(-c2ccc(-n3ccnn3)cc2)cc(-n2cc(-c3ccc(C(F)(F)F)cc3)nn2)c1
logD (HPLC retention; pH 7.4, chromatographic logD): 0.038 ± 0.013

COc1cc2[nH]c(C)c(-c3c(C)noc3C)c(=O)c2cc1Cl
logD (chromatographic; pH 7.4): 1.8

Cc1cc(C)c(S(=O)(=O)N(C)CC(=O)N2CCC(C(N)=O)CC2)c(C)c1
logD (octanol/buffer; pH 7.4): 1.33

CCCCOC(=O)/C=C/C(=O)NNC(=O)CCc1ccccc1C(=O)N[C@H](C)c1cccc2ccccc12
logD: 4.3

Cc1cnc(NC(=O)C2=C(O)c3ccccc3S(=O)(=O)N2C)s1
logD (miniaturised shake-flask; 1-octanol/water): 0.8

CCOC(=O)N1C[C@@H](c2ccc(-c3ccccc3)cc2)N[C@@H](C(CC)CC)C1
logD (shake-flask, 1-octanol/buffer; pH 7.4): > 4.7

COc1ccc2nc(-c3cc(N(C)C)ccn3)c(Nc3ccc(F)cc3)n2c1
logD (pH 7.4): 3.1

CC(C)(C)c1ccc([C@H]2COC[C@H](c3ccc(C#N)cc3)N2)cc1
logD (shake-flask, 1-octanol/buffer; pH 7.4): > 4.7

COc1ccccc1CNC(=O)c1cc(S(=O)(=O)N2CCc3ccccc3C2)c(C)n1C
logD: 3.1

COc1cc2[nH]c(C)c(-c3ccc(-c4ccccc4)cc3)c(=O)c2cc1Cl
logD (chromatographic; pH 7.4): 3.7

Cc1cc(Nc2ccc(C(F)(F)F)cc2)c2ccccc2n1
logD: 3.8

C[C@H]1CN(c2cccc(-c3ccc4ncnc(Nc5ncco5)c4c3)c2)CCO1
logD (shake flask; 1-octanol/phosphate buffer; pH 7.4): > 4.3

Cc1ccc(N(c2ccc(NC(=O)CN(C)c3ccccc3N3CCCC3=O)cc2)C(C)C)cc1
logD (shake-flask): 5.7

CC(C)C[C@@H](NC(=O)[C@H](C)NC(=O)CNC(=O)[C@@H](NC=O)C(C)C)C(=O)N[C@@H](C)C(=O)N[C@@H](C(=O)N[C@H](C(=O)N[C@@H](C(=O)N[C@@H](Cc1c[nH]c2ccccc12)C(=O)N[C@H](CC(C)C)C(=O)N[C@@H](Cc1c[nH]c2ccccc12)C(=O)N[C@H](CC(C)C)C(=O)N[C@@H](Cc1c[nH]c2ccccc12)C(=O)N[C@H](CC(C)C)C(=O)N[C@@H](Cc1c[nH]c2ccccc12)C(=O)NCCO)C(C)C)C(C)C)C(C)C
logD (UHPLC retention on C18): 5.37

COc1cc2[nH]c(C)c(-c3ccc(N(C)C)cc3)c(=O)c2cc1Cl
logD (chromatographic; pH 7.4): 2.6

CC1(C)OC[C@@H](c2ccc(C(F)(F)F)cc2)N[C@@H]1c1ccc(Cl)c(Cl)c1
logD (shake-flask, 1-octanol/buffer; pH 7.4): > 4.7

Cc1ccc(N(C)c2ccc(NC(=O)CN(C)c3ccccc3N3CCCC3=O)cc2)cc1
logD (shake-flask): 4.6

COc1cc2[nH]c(C)c(-c3ccc(C)cc3C)c(=O)c2cc1Cl
logD (chromatographic; pH 7.4): 3

Cc1nnc(C(=O)NC(C)(C)c2nc(C(=O)NCc3ccc(F)cc3)c(O)c(=O)n2C)o1
logD (miniaturised shake-flask; 1-octanol/water): 1

O=C(CCCCCCC(=O)Nc1ccccc1)NO
logD (n-octanol/PBS; 4 h, pH 7.4, 25 °C): 1.2

COc1cc2[nH]c(C)c(-c3cccnc3)c(=O)c2cc1Cl
logD (chromatographic; pH 7.4): 4.1

CCOC(=O)CNC(=O)c1ncccc1O
logD (miniaturised shake-flask; 1-octanol/water): 0.2

CCOc1ccc2nc(SCC(=O)Nc3c(C)n(C)n(-c4ccccc4)c3=O)sc2c1
logD (octanol/buffer; pH 7.4): 2.53

COc1cc2[nH]c(C)c(-c3ccc(F)cc3F)c(=O)c2cc1Cl
logD (chromatographic; pH 7.4): 2.6

CCOC(=O)N1C[C@@H](C2CCCC2)N[C@@H](c2ccc(C(C)(C)C)cc2)C1
logD (shake-flask, 1-octanol/buffer; pH 7.4): > 4.7

O=C(NC1CCCCC1)c1ncccc1O
logD (miniaturised shake-flask; 1-octanol/water): 3.5

CCOC(=O)N1C[C@@H](c2sc(N(C)C)nc2C)N[C@@H](c2cc3ccccc3cc2OC)C1
logD (shake-flask, 1-octanol/buffer; pH 7.4): > 4.7

COc1ccccc1NC(=O)CSc1nnc(-c2ccc([N+](=O)[O-])cc2)n1-c1ccccc1
logD (octanol/buffer; pH 7.4): 3.69

Cc1cc(NC(=O)C2=C(O)c3ccccc3S(=O)(=O)N2C)no1
logD (miniaturised shake-flask; 1-octanol/water): 0.5

Cn1nccc1-c1ccc(-c2cc(C(=O)O)cc3cc(-c4ccc(C(F)(F)F)cc4)ccc23)cc1
logD (HPLC retention; pH 7.4, chromatographic logD): 1

O=C(CNc1cccc2c1C(=O)N(C1CCC(=O)NC1=O)C2=O)NCCCCCCN1CCc2c(c3ccccc3n2Cc2ccc(C(=O)NO)cc2)C1 (stereo not shown)
logD (HPLC-based method; pH 7.4): 1.8

CCn1c(SCC(=O)Nc2ccccc2OC)nnc1-c1c[nH]c2ccccc12
logD (octanol/buffer; pH 7.4): 3.43

COc1cc2[nH]c(C)c(-c3ccc(C(F)(F)F)cc3)c(=O)c2cc1Cl
logD (chromatographic; pH 7.4): 2.4

COc1ccc(COC(=O)/C=C/C(=O)NNC(=O)CCc2ccccc2C(=O)N[C@H](C)c2cccc3ccccc23)cc1OC
logD: 4.5

FC(F)(F)c1cc(Nc2ncnc3ccc(-c4cccc(N5CCOCC5)c4)cc23)ccc1Cl
logD (shake flask; 1-octanol/phosphate buffer; pH 7.4): > 4.1

COC(=O)/C=C/C(=O)NNC(=O)CCc1ccccc1C(=O)N[C@H](C)c1cccc(-c2cn[nH]c2)c1
logD: 1.5

N#Cc1ccccc1[C@@H]1COCC2(CCOCC2)N1
logD (shake-flask, 1-octanol/buffer; pH 7.4): < -1

Some of these lines once more:
CS(=O)(=O)c1ccc(C(=O)N2CCCCC2)cc1
logD (shake-flask; 1-octanol/water): 0.51

O=C(CSc1nnc(-c2ccc([N+](=O)[O-])cc2)n1-c1ccccc1)N1CCOCC1
logD (octanol/buffer; pH 7.4): 1.87

O=C(O)c1cc(-c2ccc(-n3ccnn3)cc2)cc(-n2cc(-c3ccc(C(F)(F)F)cc3)nn2)c1
logD (HPLC retention; pH 7.4, chromatographic logD): 0.038 ± 0.013

COc1cc2[nH]c(C)c(-c3c(C)noc3C)c(=O)c2cc1Cl
logD (chromatographic; pH 7.4): 1.8

Cc1cc(C)c(S(=O)(=O)N(C)CC(=O)N2CCC(C(N)=O)CC2)c(C)c1
logD (octanol/buffer; pH 7.4): 1.33
